Published values gathered from unrelated publications.
Lines come from different studies, so protocols differ. Values joined by “and” are separate records of one study, mostly repeats; a detail may differ. ± marks the error that the study gave.
XPO1: Exportin-1 (XPO1, Homo sapiens, UniProt O14980)
UniProt O14980, sequence (whole entry, looked up): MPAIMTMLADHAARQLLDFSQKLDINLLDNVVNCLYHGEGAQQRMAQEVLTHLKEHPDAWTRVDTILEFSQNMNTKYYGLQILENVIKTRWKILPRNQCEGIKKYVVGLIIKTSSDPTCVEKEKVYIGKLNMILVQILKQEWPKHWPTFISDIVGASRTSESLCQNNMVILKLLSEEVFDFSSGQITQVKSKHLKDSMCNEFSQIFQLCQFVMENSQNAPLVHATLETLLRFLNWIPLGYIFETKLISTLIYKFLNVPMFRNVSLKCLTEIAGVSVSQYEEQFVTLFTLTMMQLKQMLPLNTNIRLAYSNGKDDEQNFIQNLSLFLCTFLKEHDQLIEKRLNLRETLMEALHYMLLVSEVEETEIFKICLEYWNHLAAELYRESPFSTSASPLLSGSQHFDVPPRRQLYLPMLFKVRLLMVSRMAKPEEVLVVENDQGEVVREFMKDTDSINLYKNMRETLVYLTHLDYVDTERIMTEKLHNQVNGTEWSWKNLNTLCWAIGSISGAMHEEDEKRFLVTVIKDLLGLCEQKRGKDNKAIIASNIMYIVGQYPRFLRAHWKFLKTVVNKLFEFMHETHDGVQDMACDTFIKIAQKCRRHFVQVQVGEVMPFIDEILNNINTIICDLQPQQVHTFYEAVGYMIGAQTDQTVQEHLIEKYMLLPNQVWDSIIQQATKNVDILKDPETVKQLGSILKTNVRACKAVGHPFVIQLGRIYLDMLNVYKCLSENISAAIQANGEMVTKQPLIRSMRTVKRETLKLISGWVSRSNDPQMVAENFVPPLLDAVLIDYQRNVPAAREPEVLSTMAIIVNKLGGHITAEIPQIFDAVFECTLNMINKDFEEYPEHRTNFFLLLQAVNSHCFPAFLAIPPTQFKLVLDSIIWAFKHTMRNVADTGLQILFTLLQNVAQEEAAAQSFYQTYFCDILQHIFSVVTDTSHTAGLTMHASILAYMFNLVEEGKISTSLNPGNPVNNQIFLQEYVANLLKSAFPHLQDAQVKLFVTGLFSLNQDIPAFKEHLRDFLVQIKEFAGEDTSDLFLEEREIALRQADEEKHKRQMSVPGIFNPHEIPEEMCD
CBK1: Serine/threonine-protein kinase CBK1 (CBK1, Candida albicans, UniProt Q5AP53)
UniProt Q5AP53, sequence (whole entry, looked up): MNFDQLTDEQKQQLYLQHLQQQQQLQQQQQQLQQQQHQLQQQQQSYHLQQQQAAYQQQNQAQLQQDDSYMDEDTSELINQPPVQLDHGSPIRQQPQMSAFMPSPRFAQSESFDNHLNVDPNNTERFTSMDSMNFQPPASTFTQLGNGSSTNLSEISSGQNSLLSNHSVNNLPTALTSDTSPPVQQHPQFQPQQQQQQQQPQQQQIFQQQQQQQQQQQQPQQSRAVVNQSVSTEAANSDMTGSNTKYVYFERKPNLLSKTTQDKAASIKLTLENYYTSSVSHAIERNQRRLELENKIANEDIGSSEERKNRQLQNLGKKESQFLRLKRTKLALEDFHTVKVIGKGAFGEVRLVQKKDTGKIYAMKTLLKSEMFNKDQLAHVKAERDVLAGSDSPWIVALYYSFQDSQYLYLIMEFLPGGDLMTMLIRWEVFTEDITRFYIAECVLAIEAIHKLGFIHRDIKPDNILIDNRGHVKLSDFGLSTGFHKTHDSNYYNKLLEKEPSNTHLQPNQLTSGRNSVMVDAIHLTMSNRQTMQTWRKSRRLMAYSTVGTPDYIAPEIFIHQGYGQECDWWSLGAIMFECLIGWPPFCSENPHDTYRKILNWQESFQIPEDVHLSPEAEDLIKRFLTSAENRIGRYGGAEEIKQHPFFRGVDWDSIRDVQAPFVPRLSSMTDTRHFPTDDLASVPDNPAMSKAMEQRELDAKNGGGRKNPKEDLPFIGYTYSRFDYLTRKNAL
Pancreatic alpha-amylase: Pancreatic alpha-amylase (Homo sapiens, UniProt P04746)
Nuclear receptor subfamily 2 group C member 2 ligand-binding domain: Nuclear receptor subfamily 2 group C member 2, ligand-binding domain (Homo sapiens, UniProt P49116)
UniProt P49116, sequence (whole entry, looked up): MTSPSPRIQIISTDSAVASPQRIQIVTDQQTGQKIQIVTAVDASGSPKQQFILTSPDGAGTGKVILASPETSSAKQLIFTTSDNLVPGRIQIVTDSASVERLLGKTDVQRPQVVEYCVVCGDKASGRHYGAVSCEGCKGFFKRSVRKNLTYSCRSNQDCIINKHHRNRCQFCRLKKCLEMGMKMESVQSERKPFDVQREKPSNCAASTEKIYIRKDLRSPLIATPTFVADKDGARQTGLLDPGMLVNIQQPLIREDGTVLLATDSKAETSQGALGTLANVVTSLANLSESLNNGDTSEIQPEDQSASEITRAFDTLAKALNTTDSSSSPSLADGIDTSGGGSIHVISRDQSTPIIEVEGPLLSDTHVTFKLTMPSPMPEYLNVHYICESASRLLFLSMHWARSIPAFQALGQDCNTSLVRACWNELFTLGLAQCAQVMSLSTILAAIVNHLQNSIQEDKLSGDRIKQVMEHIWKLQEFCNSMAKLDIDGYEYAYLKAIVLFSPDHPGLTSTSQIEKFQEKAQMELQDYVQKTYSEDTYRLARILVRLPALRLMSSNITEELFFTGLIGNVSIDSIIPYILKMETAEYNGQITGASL
SKP1: S-phase kinase-associated protein 1 (SKP1, Homo sapiens, UniProt P63208)
UniProt P63208, sequence (whole entry, looked up): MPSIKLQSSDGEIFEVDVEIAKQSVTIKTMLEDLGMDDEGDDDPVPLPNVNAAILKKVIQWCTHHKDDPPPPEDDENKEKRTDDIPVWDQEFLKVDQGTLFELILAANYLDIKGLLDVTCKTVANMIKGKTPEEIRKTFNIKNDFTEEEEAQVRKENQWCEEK
F-box only protein 22 with SKP1: F-box only protein 22, with SKP1 (Homo sapiens, UniProt Q8NEZ5)
UniProt Q8NEZ5, sequence (whole entry, looked up): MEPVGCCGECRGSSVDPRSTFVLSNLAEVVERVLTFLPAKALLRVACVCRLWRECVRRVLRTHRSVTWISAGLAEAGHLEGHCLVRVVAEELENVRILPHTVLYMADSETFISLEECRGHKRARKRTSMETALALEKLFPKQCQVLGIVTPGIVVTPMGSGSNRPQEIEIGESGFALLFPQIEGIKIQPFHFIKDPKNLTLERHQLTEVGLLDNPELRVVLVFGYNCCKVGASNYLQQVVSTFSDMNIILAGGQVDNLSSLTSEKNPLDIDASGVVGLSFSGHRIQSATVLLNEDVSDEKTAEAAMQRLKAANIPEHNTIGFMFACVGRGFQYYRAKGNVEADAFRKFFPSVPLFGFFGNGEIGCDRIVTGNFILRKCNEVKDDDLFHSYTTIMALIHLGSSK
CDK14: Cyclin-dependent kinase 14 (CDK14, Homo sapiens, UniProt O94921)
UniProt P51575, sequence (whole entry, unmodified, looked up): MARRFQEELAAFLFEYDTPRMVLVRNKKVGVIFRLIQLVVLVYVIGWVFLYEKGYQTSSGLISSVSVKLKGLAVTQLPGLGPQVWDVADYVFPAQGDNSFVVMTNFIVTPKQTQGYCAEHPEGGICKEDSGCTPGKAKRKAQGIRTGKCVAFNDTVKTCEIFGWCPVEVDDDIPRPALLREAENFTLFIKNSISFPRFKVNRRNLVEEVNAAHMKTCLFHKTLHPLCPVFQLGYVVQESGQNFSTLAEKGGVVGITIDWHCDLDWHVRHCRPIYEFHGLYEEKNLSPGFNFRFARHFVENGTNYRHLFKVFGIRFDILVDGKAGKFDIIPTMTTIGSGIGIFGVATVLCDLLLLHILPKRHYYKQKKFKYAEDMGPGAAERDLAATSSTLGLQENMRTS
UniProt Q96S37, sequence (whole entry, looked up): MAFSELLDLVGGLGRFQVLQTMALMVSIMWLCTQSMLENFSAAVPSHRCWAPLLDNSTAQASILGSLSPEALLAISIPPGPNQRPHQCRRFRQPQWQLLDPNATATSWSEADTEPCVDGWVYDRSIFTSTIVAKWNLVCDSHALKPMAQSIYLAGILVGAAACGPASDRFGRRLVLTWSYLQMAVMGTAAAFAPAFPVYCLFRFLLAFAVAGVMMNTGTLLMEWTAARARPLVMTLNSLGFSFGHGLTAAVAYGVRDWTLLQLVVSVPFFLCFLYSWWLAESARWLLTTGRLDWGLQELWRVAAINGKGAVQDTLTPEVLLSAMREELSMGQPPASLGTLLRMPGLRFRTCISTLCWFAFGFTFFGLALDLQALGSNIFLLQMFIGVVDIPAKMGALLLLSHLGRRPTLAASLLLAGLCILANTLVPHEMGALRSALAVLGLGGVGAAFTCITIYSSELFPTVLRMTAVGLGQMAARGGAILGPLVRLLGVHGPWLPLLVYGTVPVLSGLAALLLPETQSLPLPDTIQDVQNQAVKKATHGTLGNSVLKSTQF
UniProt Q16774, sequence (whole entry, unmodified, looked up): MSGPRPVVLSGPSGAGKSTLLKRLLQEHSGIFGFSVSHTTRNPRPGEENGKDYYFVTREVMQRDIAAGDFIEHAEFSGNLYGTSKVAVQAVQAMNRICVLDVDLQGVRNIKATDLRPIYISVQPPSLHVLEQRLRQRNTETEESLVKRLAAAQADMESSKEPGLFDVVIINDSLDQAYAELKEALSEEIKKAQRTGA
UniProt O94921, sequence (whole entry, looked up): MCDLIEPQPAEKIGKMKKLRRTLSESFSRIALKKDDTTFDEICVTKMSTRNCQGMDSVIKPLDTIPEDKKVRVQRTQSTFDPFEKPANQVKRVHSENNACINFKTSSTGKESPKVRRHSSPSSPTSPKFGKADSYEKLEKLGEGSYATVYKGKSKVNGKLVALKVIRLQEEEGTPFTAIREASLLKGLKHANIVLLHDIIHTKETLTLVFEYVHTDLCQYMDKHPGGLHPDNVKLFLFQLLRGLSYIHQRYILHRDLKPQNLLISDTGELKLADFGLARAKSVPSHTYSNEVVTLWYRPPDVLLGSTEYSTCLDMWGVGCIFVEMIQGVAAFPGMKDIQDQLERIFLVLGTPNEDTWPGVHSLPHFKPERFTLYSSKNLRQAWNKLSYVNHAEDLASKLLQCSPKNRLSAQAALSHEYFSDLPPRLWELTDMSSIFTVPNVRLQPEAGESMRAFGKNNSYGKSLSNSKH
UniProt P12763, sequence (whole entry, looked up): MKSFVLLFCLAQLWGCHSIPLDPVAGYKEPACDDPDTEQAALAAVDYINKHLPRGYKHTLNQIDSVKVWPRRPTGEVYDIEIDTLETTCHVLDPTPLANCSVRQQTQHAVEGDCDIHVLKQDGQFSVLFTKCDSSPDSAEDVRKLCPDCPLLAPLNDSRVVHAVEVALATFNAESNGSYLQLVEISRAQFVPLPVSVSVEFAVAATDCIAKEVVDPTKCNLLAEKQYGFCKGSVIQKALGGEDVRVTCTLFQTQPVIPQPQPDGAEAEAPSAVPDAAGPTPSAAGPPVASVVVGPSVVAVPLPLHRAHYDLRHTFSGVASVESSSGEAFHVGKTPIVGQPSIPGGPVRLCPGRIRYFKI

SMILES	target	assay	test system	setting	how to read	endpoint	value
CC(Nc1nc(N2CCCC2)nc2ccccc12)c1ccccc1 (stereo not shown)	XPO1	nuclear export, high content imaging	HeLa Kyoto reporter	10.01 µM, 2 h	–	cells with nuclear reporter	3.99% and 1.73% and 8.42%
C=CC(=O)N1CCC(COCC(=O)N2CCN(c3nc(-c4cnc(N)nc4C(F)F)nc(N4CCOC[C@@H]4C)n3)CC2)CC1	CAMK2G (Homo sapiens, UniProt Q13555)	KINOMEscan	–	1 µM	–	remaining binding	100%
Cc1nc(CSc2nc(SCc3ccc(C(C)C)cc3)nc(=O)[nH]2)cs1	TOP2A (Homo sapiens, UniProt P11388)	decatenation	–	7.8 µM	–	mean decatenated DNA	50.7%
CC(C)C[C@@H]1NC(=O)[C@H](C)NC(=O)CNC(=O)[C@H](CC(N)=O)NC(=O)[C@@H]2CCCN2C(=O)[C@H](Cc2ccc(O)cc2)NC(=O)[C@H](CCCNC(=N)N)NC(=O)[C@H](Cc2ccccc2)NC(=O)[C@@H](NC(=O)[C@H](CCCCN)NC(=O)[C@@H]2CCCN2C(=O)[C@H](CO)NC(=O)[C@H](C)NC(=O)[C@@H](N)Cc2ccc(O)cc2)CSSC[C@@H](C(=O)N[C@H](C(N)=O)[C@@H](C)O)NC(=O)[C@H](C)NC1=O	Alpha-2-HS-glycoprotein, asialo (AHSG, Bos taurus, UniProt P12763)	isothermal titration calorimetry	–	concentration not given, pH 7.0, 25 °C, together with: asialofetuin	–	binding stoichiometry	0.135
CC(=O)N[C@@H](COP(=O)(O)O)C(=O)N1CCC[C@H]1C(=O)N[C@H](C(=O)N[C@@H](Cc1ccccc1)C(N)=O)[C@@H](C)O	Breast cancer type 1 susceptibility protein, tandem BRCT domains (BRCA1, Homo sapiens, UniProt P38398)	binding, isothermal titration calorimetry	–	BRCT domain, BACH1 peptide	–	ΔH	-14 ± 1.1 kcal/mol
N#Cc1ccc2c(-c3ccncc3)c(-c3ccc(F)cc3)nn2c1	CBK1	kinase binding, competitor, MIB/MS competition, item: CBK1	Candida albicans cell lysate	10 µM	baseline: DMSO	log2 fold change	0.583
CN(C)C(=O)C(CCN1CCC(O)(c2ccc(Cl)cc2)CC1)(c1ccccc1)c1ccccc1	Calcium-activated potassium channel subunit alpha-1, with LRRC26 γ1 subunit (KCNMA1, Homo sapiens, UniProt Q12791)	BK channel conductance, inside-out patch clamp	–	BKα/γ1, Vm 10 mV, nominally Ca2+-free	–	Hill coefficient	1.01 ± 0.27
O=C1OC(c2ccccc2)=N/C1=C\c1ccccc1	Pancreatic alpha-amylase	inhibitor, Lineweaver-Burk	–	100 ppm, together with: starch substrate	–	Km	887 µM
Nc1nc2c(ncn2[C@@H]2O[C@H](COP(=O)(O)OP(=O)(O)O)[C@@H](O)[C@H]2O)c(=O)[nH]1	GUK1 (Homo sapiens, UniProt Q16774, S13A)	binding, ITC	–	–	–	ΔG	-5.64 kcal/mol
Cc1cccc(C)c1OCC(C)N (stereo not shown)	Nuclear receptor subfamily 2 group C member 2 ligand-binding domain	binding	–	–	–	koff	1.44e-06 s⁻¹
CC(C)C[C@@H]1NC(=O)CNC(=O)[C@H](CC(C)C)NC(=O)[C@@H]2CCCN2C(=O)[C@H](CC(=O)O)NC(=O)[C@H](Cc2ccc(O)cc2)NC(=O)CNC(=O)[C@@H](Cc2ccc(O)cc2)NC(=O)CSC[C@@H](C(N)=O)NC(=O)[C@H](C)NC(=O)[C@H](Cc2ccccc2)NC(=O)[C@H](Cc2ccc(O)cc2)NC(=O)[C@H](CCCCN)NC1=O	VPS35/VPS29 (Homo sapiens, UniProt Q96QK1+Q9UBQ0)	binding, ITC	–	25 °C, heterodimer	–	-TΔS	2.4 ± 1.1 kcal/mol
CC(C)=CCC/C(C)=C/C=C/C(C)=C/C=C/C(C)=C/C=C/C=C(C)/C=C/C=C(C)/C=C/C=C(\C)CCC=C(C)C	Beta-lactoglobulin (LGB, Bos taurus, UniProt P02754)	fluorescence quenching	–	concentration not given, 303 K	–	number of binding sites	0.98
O=C(COP(=O)(O)O)[C@@H](O)[C@H](O)[C@H](O)COP(=O)(O)O	Myb-binding protein 1A (Homo sapiens, UniProt Q9BQG0)	thermal proteome profiling, item: MYBBP1A	HepG2 cell lysate	concentration not given, 57 over 37 °C, mean	baseline: compound over control	thermal stability ratio	0.624
O=c1c(O)c(-c2cc(O)c(O)c(O)c2)oc2cc(O)cc(O)c12	Serotonin N-acetyltransferase (Ovis aries, UniProt Q29495)	enzyme activity, inhibitor	–	concentration not given, together with: acetyl-CoA	–	activity class	active
CN(C)CCCOc1nn(Cc2ccccc2)c2ccccc12	Nuclear receptor subfamily 2 group C member 2 ligand-binding domain	SPR imaging	–	600 nM	–	koff	2.4e-05 s⁻¹
NCCCC(=O)O	SLC6A6 (Homo sapiens, UniProt P31641, G62A)	binding, microscale thermophoresis	–	244 nM, room temperature, together with: 50 nM labelled protein	higher = more binding	normalised MST signal	-0.0805
CCCCCCCCCCCCCCCC(=O)SCCNC(=O)CCNC(=O)[C@H](O)C(C)(C)COP(=O)(O)OP(=O)(O)OC[C@H]1O[C@@H](n2cnc3c(N)ncnc32)[C@H](O)[C@@H]1OP(=O)(O)O	glycerol-3-phosphate acyltransferase, mouse	substrate	mouse testis total membranes	pH 7.5, room temperature, together with: [3H]glycerol-3-phosphate	–	Km	112 ± 24.9 µM
CC1(C)CC2(C)OC(=O)NC2(C)c2ccccc21 (stereo not shown)	SKP1	binding, affinity selection mass spectrometry	–	–	baseline: other proteins in batch	fold enrichment	0.948
c1coc(-c2n[nH]cc2-c2ccnc3ccccc23)c1	CBK1	kinase binding, MIB/MS competition	Candida albicans lysate	10 µM	baseline: DMSO, negative = stronger binding	log2 fold change	-0.16
CCCC[C@H]1CN(c2cccc(OC(F)(F)F)c2)C(=O)CN1Cc1cncn1Cc1ccc(C#N)c(F)c1	Cryptococcus neoformans farnesyltransferase	enzyme activity, inhibitor, fluorescence	–	together with: 1 µM FPP, 0.5 µM dansylated peptide	–	IC50	40 nM
Cc1ccc(N2CC(C(N)=O)CC2=O)cc1 (stereo not shown)	F-box only protein 22 with SKP1	binding, affinity selection mass spectrometry	–	–	baseline: other proteins in batch	log fold enrichment	0
Cc1ccc(C(=O)Nc2ccc3ccccc3c2)o1	Otop1 (Mus musculus, UniProt Q80VM9)	proton current, voltage ramp patch-clamp	–	10 µM, Na+ bath cation	–	reversal potential	56.7 mV

SMILES	target	assay	test system	setting	how to read	endpoint	value
C[S+](CC[C@H](N)C(=O)O)C[C@H]1O[C@@H](n2cnc3c(N)ncnc32)[C@H](O)[C@@H]1O (stereo partly shown)	O-methyltransferase (Sorghum bicolor, UniProt A0A1B6PFV1)	isothermal titration calorimetry	–	concentration not given, apo protein	–	ΔG of binding	-5.39 kcal/mol
NC/C(=C\F)COc1cccc(Cn2c(=S)[nH]c(=O)c3[nH]cnc32)c1	Myeloperoxidase (MPO, Homo sapiens, UniProt P05164)	H2O2 consumption, inhibitor, H2O2 electrode	–	0.028 µM, 0.2 s	–	H2O2 concentration	-0.173 µM
Nc1ncnc2c1ncn2[C@@H]1O[C@H](COP(=O)(O)CP(=O)(O)OP(=O)(O)O)[C@@H](O)[C@H]1O	P2X purinoceptor 1 (P2RX1, Homo sapiens, UniProt P51575, D170A)	saturation binding	–	13 nM	–	specific binding	82 corrected cpm and 78.5 corrected cpm and 62 corrected cpm
C[C@H](N)C(=O)N[C@@H](C)C(=O)N[C@H](C(=O)N[C@@H](CCCCN)C(=O)N[C@@H](CCC(N)=O)C(=O)N[C@H](C(=O)N[C@@H](C)C(=O)N[C@@H](CCCNC(=N)N)C(=O)N[C@@H](CCCCN)C(=O)N[C@@H](CO)C(=O)O)[C@@H](C)O)[C@@H](C)O	Transcriptional regulator ATRX (ATRX, Homo sapiens, UniProt P46100, F284Y/K251R)	isothermal titration calorimetry	–	concentration not given, pH 7.5, 25.0 °C	–	binding enthalpy	-4.47 kcal/mol
COc1cc2c(cc1OC)C(=O)N(CCCCN1CCN(c3ccccc3OC)CC1)C2	DRD5 (Homo sapiens, UniProt P21918)	radioligand binding	–	concentration not given, together with: [3H]SCH23390	–	inhibition	75.1%
CC1=C(/C=C/C(C)=C/C=C/C(C)=C/C=O)C(C)(C)CCC1	Rhodopsin (RHO, Bos taurus, UniProt P02699, G270F)	retinal entry, Trp FRET	lipid bicelles	28 °C, G270F mutant	baseline: wild-type rhodopsin	relative kon	1 ± 0.13
Nc1[nH]c(=O)ncc1F	Nuclear receptor subfamily 2 group C member 2 ligand-binding domain	SPR imaging	–	600 nM	–	koff	4.1e-05 s⁻¹
Nc1nc2c(ncn2[C@@H]2O[C@H](COP(=O)(O)O)[C@@H](O)[C@H]2O)c(=O)[nH]1	GUK1 (Homo sapiens, UniProt Q16774, R148A)	enzyme activity, NADH-coupled	–	7.812 µM	–	reaction rate	-0.405 s⁻¹ and 1.88 s⁻¹ and 0.878 s⁻¹
Cl.Cl.OCCOCCN1CCN(C(c2ccccc2)c2ccc(Cl)cc2)CC1 (stereo not shown)	Nuclear receptor subfamily 2 group C member 2 ligand-binding domain	SPR imaging	–	600 nM	–	koff	8.85e-07 s⁻¹
CC[C@@H]1[C@H](F)C(=O)N[C@@H]1COc1nccc2cc(C(N)=O)c(OC)cc12	CDK14	ATP probe binding, KiNativ profiling, item: Lys2 probe site	THP-1 cell lysate	0.04 mM	–	inhibition	5.5%
Cc1cccc(N2CC(C(=O)O)CC2=O)c1 (stereo not shown)	SKP1	binding, affinity selection mass spectrometry	–	–	baseline: other proteins in batch	fold enrichment	1.06
C=C1CN(S(=O)(=O)c2ccc(C)cc2)CCCN(Cc2ccccc2)CCCN(S(=O)(=O)c2ccc(C)cc2)C1	Protein transport protein Sec61 subunit alpha isoform 1 (Homo sapiens, UniProt P61619)	Sec61-dependent translocation, inhibitor, item: CD4 signal peptide-FLuc reporter	HEK293	0.0043 mM, 6 h	–	FLuc/RLuc ratio	0.958
C[C@@H]1C[C@H]2[C@@H]3CCC4=CC(=O)C=C[C@]4(C)[C@@]3(Cl)[C@@H](O)C[C@]2(C)[C@@]1(OC(=O)c1ccco1)C(=O)CCl	Nuclear receptor subfamily 2 group C member 2 ligand-binding domain	SPR imaging	–	600 nM	–	koff	4.89e-07 s⁻¹
CCCCC[S+]([O-])c1n[nH]c(N)n1 (stereo not shown)	F-box only protein 22 with SKP1	binding, affinity selection mass spectrometry	–	–	baseline: other proteins in batch	log fold enrichment	-0.119
C=CC(=O)N1CCN(c2nc(OC[C@@H]3CCCN3C)nc3c(F)c(-c4nc(N)cc(C)c4C(F)(F)F)c(Cl)cc23)[C@@H](C)C1	GTPase KRas, GDP-bound (KRAS, Homo sapiens, UniProt P01116, Q61H)	SPR	–	–	–	dissociation rate constant koff	0.106 ± 0.006 s⁻¹
C=CC(=O)N1CCC(C(=O)NCC(=O)N2CCN(c3nc(-c4cnc(N)nc4C(F)F)nc(N4CCOCC4)n3)CC2)CC1	CDK14	KINOMEscan	–	1 µM	–	remaining binding	100%
CCS(=O)(=O)c1nc(C2CC2)cc(C(F)(F)F)n1	XPO1	nuclear export, high content imaging	HeLa Kyoto reporter	50 µM, 2 h	–	cells with nuclear reporter	7.12% and 9.08% and 8.99%
O=C1OC(c2ccccc2)=N/C1=C\c1ccc(O)cc1	Pancreatic alpha-amylase	inhibitor, Lineweaver-Burk	–	100 ppm, together with: starch substrate	–	Vmax	0.048 mg/mL/min
CC(=O)c1ccc2cc(S(=O)(=O)Nc3ccc(F)cc3)ccc2c1	STAT3 (Homo sapiens, UniProt P40763)	tyrosine phosphorylation, inhibitor, ELISA, item: phospho-Tyr705	–	–	–	Hill slope	-0.424
Nc1ncnc2c1ncn2[C@@H]1O[C@H](COP(=O)(O)OP(=O)(O)OP(=O)(O)O)[C@@H](O)[C@H]1O	ATP-sensitive inward rectifier potassium channel 1 (Rattus norvegicus, UniProt P35560)	inside-out patch clamp	renal principal cells, rat	together with: PKA	–	concentration restoring channel activity	0.05 to 0.1 mM
CCc1oc2ccccc2c1C(=O)c1cc(Br)c(O)c(Br)c1	SLC22A12 (Homo sapiens, UniProt Q96S37)	inhibitor	HEK-293T	0.01 µM, 10 min, 37 °C, together with: [14C]urate 10 µM	–	normalized urate uptake	0.939 and 0.879 and 0.964
